{"data": "Results gathered from unrelated publications", "note": "Each line is one published result; not all experiments were run side by side. “And” joins repeats or separate records; there may be more than shown. Numbers after ± are the reported error.", "chain of UniProt P07237 (whole entry, looked up)": "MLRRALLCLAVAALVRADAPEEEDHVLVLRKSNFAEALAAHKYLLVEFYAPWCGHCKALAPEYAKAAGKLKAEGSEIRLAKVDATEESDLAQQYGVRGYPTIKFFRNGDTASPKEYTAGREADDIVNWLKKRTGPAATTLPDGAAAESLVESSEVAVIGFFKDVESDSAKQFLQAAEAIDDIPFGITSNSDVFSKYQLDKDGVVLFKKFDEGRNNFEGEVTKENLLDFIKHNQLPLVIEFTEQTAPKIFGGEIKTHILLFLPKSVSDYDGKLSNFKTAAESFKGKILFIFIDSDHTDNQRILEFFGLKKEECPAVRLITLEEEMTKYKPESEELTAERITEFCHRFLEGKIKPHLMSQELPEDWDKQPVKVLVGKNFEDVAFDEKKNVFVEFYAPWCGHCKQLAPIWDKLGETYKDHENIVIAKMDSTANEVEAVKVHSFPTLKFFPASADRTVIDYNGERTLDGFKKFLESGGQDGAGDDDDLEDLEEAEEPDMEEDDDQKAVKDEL", "chain of UniProt Q08345 (whole entry, looked up)": "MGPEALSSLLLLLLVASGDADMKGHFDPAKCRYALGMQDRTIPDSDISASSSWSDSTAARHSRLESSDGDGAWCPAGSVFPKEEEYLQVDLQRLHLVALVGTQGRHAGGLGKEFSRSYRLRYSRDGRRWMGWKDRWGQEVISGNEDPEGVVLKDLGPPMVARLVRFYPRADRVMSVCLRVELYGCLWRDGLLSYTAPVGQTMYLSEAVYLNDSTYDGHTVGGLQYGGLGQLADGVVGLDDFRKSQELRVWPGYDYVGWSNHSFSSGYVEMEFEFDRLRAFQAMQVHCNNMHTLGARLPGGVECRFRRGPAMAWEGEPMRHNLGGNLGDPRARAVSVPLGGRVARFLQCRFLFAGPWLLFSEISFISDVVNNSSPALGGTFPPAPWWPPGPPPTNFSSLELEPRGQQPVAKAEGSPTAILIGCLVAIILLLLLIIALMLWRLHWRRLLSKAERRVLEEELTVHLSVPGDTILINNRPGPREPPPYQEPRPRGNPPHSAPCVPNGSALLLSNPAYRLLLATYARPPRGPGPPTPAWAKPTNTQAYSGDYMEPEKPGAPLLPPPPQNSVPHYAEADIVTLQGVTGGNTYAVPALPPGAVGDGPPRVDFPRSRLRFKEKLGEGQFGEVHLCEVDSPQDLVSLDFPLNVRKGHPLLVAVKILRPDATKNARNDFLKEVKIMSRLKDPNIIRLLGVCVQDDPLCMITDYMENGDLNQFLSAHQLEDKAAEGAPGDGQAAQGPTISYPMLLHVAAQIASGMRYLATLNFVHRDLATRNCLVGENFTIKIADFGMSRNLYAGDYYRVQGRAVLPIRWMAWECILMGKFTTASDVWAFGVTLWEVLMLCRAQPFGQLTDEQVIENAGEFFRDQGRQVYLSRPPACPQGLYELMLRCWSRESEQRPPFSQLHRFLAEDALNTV", "chain of UniProt O00522 (whole entry, looked up)": "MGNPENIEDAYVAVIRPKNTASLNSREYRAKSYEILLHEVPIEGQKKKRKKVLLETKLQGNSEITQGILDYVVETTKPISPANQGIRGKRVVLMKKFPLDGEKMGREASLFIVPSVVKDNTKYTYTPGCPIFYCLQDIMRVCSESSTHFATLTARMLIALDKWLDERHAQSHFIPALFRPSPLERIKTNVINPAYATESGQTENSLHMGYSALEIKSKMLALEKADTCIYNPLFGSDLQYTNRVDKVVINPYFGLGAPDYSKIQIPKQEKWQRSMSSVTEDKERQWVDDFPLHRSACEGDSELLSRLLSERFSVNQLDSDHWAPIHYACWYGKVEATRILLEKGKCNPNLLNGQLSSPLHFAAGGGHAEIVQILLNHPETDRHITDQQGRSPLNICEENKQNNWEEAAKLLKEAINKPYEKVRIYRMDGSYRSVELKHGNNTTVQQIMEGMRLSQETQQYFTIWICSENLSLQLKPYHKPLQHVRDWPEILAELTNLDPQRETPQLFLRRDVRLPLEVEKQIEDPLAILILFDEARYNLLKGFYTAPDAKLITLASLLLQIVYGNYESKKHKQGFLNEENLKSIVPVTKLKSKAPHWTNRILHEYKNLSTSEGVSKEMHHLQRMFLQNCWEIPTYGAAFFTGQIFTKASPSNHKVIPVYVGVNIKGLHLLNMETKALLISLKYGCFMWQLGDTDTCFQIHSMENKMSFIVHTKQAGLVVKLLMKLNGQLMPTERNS", "chain of UniProt P97321 (whole entry, looked up)": "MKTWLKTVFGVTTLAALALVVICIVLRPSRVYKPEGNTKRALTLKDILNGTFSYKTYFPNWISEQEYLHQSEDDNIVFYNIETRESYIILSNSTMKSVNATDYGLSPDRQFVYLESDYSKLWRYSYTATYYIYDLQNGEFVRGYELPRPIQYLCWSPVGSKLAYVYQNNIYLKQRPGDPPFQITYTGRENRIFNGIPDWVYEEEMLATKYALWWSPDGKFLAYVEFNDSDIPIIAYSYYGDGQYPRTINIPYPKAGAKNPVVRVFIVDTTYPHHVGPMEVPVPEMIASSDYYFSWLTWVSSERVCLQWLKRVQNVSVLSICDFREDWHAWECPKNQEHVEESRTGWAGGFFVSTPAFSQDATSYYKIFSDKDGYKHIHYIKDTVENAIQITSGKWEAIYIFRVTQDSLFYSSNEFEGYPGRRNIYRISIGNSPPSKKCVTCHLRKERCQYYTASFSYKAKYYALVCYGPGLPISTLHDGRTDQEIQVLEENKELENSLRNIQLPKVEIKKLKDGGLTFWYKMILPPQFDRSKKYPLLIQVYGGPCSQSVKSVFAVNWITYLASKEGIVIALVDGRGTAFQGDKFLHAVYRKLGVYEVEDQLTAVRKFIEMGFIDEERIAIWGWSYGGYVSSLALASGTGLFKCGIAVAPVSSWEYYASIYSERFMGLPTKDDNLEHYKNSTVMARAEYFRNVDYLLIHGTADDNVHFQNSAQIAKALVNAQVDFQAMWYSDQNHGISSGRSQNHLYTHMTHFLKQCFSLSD", "chain of UniProt P48775 (whole entry, looked up)": "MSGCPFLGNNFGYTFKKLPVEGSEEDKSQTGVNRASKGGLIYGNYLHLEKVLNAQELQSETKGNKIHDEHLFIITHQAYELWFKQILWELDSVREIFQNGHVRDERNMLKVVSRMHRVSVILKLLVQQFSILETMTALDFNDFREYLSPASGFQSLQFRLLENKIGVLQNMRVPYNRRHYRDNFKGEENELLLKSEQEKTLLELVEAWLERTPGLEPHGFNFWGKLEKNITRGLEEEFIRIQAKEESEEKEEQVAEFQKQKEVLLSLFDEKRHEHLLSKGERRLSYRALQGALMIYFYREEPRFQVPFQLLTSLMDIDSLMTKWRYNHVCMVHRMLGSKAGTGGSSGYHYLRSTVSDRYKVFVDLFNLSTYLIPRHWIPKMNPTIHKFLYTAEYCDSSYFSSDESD", "chain of UniProt P11362 (whole entry, looked up)": "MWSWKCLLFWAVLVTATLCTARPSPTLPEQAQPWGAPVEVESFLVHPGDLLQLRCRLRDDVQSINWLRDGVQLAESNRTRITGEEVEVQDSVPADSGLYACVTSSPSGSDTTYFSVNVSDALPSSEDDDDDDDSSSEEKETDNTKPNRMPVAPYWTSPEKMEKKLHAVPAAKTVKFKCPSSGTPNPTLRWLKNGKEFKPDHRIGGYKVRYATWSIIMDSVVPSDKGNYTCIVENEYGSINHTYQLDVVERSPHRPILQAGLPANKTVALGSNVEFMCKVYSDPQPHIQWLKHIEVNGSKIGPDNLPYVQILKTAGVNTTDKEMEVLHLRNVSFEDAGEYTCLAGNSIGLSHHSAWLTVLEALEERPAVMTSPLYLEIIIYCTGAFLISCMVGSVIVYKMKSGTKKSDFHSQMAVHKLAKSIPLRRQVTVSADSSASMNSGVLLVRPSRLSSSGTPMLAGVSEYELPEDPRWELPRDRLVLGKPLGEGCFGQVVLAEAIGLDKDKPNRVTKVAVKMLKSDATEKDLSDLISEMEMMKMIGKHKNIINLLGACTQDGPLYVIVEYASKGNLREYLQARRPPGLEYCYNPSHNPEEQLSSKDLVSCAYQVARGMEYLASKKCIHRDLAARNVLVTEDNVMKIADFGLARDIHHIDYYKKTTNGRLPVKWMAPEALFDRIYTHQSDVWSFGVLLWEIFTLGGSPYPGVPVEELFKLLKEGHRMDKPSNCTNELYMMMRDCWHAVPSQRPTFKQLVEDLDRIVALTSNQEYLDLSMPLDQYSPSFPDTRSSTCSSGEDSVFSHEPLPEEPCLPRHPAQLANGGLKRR", "chain of UniProt P26433 (whole entry, looked up)": "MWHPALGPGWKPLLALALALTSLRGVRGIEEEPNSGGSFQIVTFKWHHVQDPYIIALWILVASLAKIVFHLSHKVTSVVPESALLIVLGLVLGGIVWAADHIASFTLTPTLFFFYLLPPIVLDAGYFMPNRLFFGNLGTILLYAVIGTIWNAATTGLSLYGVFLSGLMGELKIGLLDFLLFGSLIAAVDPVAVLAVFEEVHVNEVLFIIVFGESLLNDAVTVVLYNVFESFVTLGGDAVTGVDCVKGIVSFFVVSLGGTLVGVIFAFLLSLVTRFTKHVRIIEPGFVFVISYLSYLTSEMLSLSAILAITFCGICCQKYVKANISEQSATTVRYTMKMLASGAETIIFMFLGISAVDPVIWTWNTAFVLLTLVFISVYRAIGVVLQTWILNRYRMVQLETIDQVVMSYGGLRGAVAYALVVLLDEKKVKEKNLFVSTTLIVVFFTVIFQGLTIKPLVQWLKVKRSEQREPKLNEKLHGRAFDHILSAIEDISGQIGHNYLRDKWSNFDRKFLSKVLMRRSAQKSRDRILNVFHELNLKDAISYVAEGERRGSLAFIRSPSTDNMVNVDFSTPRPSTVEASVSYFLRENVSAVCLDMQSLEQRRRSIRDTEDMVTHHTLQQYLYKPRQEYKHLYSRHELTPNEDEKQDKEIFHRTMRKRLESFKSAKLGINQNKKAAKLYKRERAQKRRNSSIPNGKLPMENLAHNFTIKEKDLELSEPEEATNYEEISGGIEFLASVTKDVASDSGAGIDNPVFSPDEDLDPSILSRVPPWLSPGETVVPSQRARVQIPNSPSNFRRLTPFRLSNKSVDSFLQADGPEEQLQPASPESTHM"}
{"SMILES": "COC(=O)c1ccc(CS(=O)(=O)CC(=O)C23CC4CC(CC(C4)C2)C3)o1", "target": "HSD11B1 (Homo sapiens, UniProt P28845)", "assay": "enzyme activity in cells, inhibitor", "IC50": "239 nM"}
{"SMILES": "C=CCNC(=O)[C@H](CCc1ccccc1)NC(=O)[C@H](CC(=O)NCC(C)(C)C)NC(=O)CCc1ccccc1", "target": "Proteasome subunit beta type-10 / Proteasome subunit beta type-3 (Homo sapiens, UniProt P40306+P49720)", "assay": "inhibitor", "IC50": "> 100000 nM"}
{"SMILES": "Oc1ccc(CCNc2ncnc3[nH]ncc23)cc1", "target": "TDO2 (Homo sapiens, UniProt P48775)", "assay": "inhibitor", "setting": "with: L-tryptophan 400 µM", "IC50": "202000 nM"}
{"SMILES": "Cc1cccc(/N=c2\\oc3ccccc3cc2-c2ccccc2)c1", "target": "PTGS2 (Homo sapiens, UniProt P35354)", "assay": "enzyme activity, inhibitor", "IC50": "10.2 nM"}
{"SMILES": "Cc1cccc2c1N(C(=O)CSc1ccc(C(F)(F)F)cn1)CCC2", "target": "TRPV3 (Homo sapiens, UniProt Q8NET8)", "assay": "calcium flux, inhibitor", "system": "HEK293 overexpressing target", "setting": "30 min preincubation, with: carvacrol 300 µM", "IC50": "3000 nM"}
{"SMILES": "Cc1cc(C)n2c1C=C1C=CC(CCC(=O)N3CCN(CCCOc4ccc5nccc(C(=O)NCC(=O)N6CC(F)(F)C[C@H]6C#N)c5c4)CC3)=[N+]1[B-]2(F)F", "target": "Fap (Mus musculus, UniProt P97321)", "assay": "enzyme activity, inhibitor, fluorescence", "IC50": "2.62 nM"}
{"SMILES": "CN1Cc2c(Cl)cc(Cl)cc2C(c2ccc(S(=O)(=O)NCCOCCOCCOCCNC(=O)C(O)C(O)C(=O)NCCOCCOCCOCCNS(=O)(=O)c3ccc(C4CN(C)Cc5c(Cl)cc(Cl)cc54)cc3)cc2)C1 (stereo not shown)", "target": "Sodium/hydrogen exchanger 3 (Rattus norvegicus, UniProt P26433)", "assay": "intracellular pH recovery, inhibitor, pH-sensitive dye", "system": "opossum kidney cells, transfected", "IC50": "63.1 nM"}
{"SMILES": "COc1ccc2ccc(C(=O)Nc3ccc(CN)cc3)c(O)c2c1", "target": "TMPRSS2 (Homo sapiens, UniProt O15393)", "assay": "enzyme activity, inhibitor, fluorescence", "setting": "with preincubation", "IC50": "20600 nM"}
{"SMILES": "CC(/C=C/C(=O)NO)=C\\[C@@H](C)C(=O)c1ccc(N(C)C)cc1", "target": "PTPN12 (Homo sapiens, UniProt Q05209)", "assay": "enzyme activity, inhibitor, fluorescence", "IC50": "> 100000 nM"}
{"SMILES": "OC(c1ccccc1)(c1ccccc1)c1ccccc1C(F)(F)F", "target": "Gap junction alpha-8 protein (Gja8, Mus musculus, UniProt P28236)", "assay": "gap junction current, inhibitor, dual whole-cell voltage clamp", "system": "transfected mouse N2a cell pairs", "IC50": "3000 nM"}
{"SMILES": "CNC(=O)[C@@H]1Cc2c([nH]c3ccccc23)[C@@H](c2ccc(Cl)cc2Cl)N1", "target": "MEP cytidylyltransferase IspD (Plasmodium falciparum, UniProt Q8I273)", "assay": "enzyme activity, inhibitor, fluorimetric pyrophosphate", "IC50": "57 ± 10 nM"}
{"SMILES": "COc1cc2nccc(Oc3ccc(NC(=S)N[C@H](C)CO)c(Cl)c3)c2cc1C(N)=O", "target": "FGFR1 (Homo sapiens, UniProt P11362)", "IC50": "416 nM"}
{"SMILES": "N#Cc1cnc(Nc2nc3ccccc3o2)nc1-c1ccsc1", "target": "Grm5 (Rattus norvegicus, UniProt P31424)", "assay": "calcium signal, antagonist", "IC50": "4740 nM"}
{"SMILES": "O=C(Nc1cccc(COc2cccnc2)c1)Nc1ccc(Cl)c(Cl)c1", "target": "DDR1 (Homo sapiens, UniProt Q08345)", "assay": "enzyme activity, inhibitor, mobility shift", "IC50": "171 nM"}
{"SMILES": "CC(NC(=O)c1ccccc1/N=C/c1c(O)ccc2ccccc12)c1ccccc1 (stereo not shown)", "target": "Krev interaction trapped protein 1, FERM domain (KRIT1, Homo sapiens, UniProt O00522)", "assay": "HEG1-KRIT1 FERM interaction, inhibitor, flow cytometry bead", "IC50": "10000 nM"}
{"SMILES": "CCCCCCc1ccc(S(=O)(=O)N2CC2C(N)=O)cc1 (stereo not shown)", "target": "P4HB (Homo sapiens, UniProt P07237)", "assay": "enzyme activity, inhibitor, absorbance", "setting": "pH 7.6", "IC50": "33 nM and 30 nM"}
{"note": "Some of these lines once more:"}
{"SMILES": "CN1Cc2c(Cl)cc(Cl)cc2C(c2ccc(S(=O)(=O)NCCOCCOCCOCCNC(=O)C(O)C(O)C(=O)NCCOCCOCCOCCNS(=O)(=O)c3ccc(C4CN(C)Cc5c(Cl)cc(Cl)cc54)cc3)cc2)C1 (stereo not shown)", "target": "Sodium/hydrogen exchanger 3 (Rattus norvegicus, UniProt P26433)", "assay": "intracellular pH recovery, inhibitor, pH-sensitive dye", "system": "opossum kidney cells, transfected", "IC50": "63.1 nM"}
{"SMILES": "COC(=O)c1ccc(CS(=O)(=O)CC(=O)C23CC4CC(CC(C4)C2)C3)o1", "target": "HSD11B1 (Homo sapiens, UniProt P28845)", "assay": "enzyme activity in cells, inhibitor", "IC50": "239 nM"}
